# Measured values of several laboratories.
# Protocols differ between the studies behind these lines. ± gives the spread as reported.
Compound,test,test system,conditions,how to read,endpoint,value
CN1CC[C@@H](c2c(O)cc(O)c3c(=O)cc(-c4ccc(C(F)(F)F)cc4Cl)oc23)[C@@H]1CO,item: Dyspnea,AML,"oral, 150 mg, intermittent dosing",,patients with adverse event,25%
COc1ccc(CCC2CCCC(CCc3ccc(OC)cc3)N2C[C@@H](O)CO)cc1.Cl (stereo in doubt),,rabbit Purkinje fibres,"0.03 µM, cycle length 1 s",relative to: baseline,APD90 change,10.4 ± 0.8%
CC(=O)c1c(C)c2cnc(Nc3ccc(N4CCNCC4)cn3)nc2n(C2CCCC2)c1=O,,C57BL/6 mice,intraperitoneal,,maximum tolerated dose,25 mg/kg
C=CC(=O)N1CC[C@H](n2nc(C#Cc3cc(OC)cc(OC)c3)c3c(N)ncnc32)C1,,patients with advanced solid tumours,"oral, dose not given, Nausea, any grade, QD, with: lanthanum carbonate hydrate",,adverse drug reaction incidence,12.5%
O=c1cc(-c2ccc(O)c(O)c2)oc2cc(O)cc(O)c12,,"Sprague-Dawley rat, male, obese, urine","oral, 100 mg/kg of neohesperidin, 48 h, after β-glucuronidase/sulfatase, total",,amount excreted in urine,148 ± 12.7 ng
COc1cc2c(Oc3ccc4[nH]c(C)cc4c3F)ccnc2cc1OCC1(N)CC1,,paediatric recurrent refractory sarcoma,"concentration not given, whole group",,grade 3 Hyperthyroidism,0%
O=C(O)CCC(CP(=O)(O)O)C(=O)O (stereo not shown),,rat plasma,"4 µg/mL, 4 h, room temperature, bench-top stability",,measured concentration,4.22 ± 0.28 µg/mL
CC(=O)c1ccccc1,,,pH 7.4,,logD (chromatographic),3.18
COc1ncccc1-c1cnn2ccc(N3CCN(C(=O)OC(C)C)CC3)nc12,,"mouse nerve ligation model, brain","oral, 3 mg/kg, 120 min after last dose, repeat dosing day 1",,drug concentration,1900 nM
c1csc(CNc2cc[nH]n2)c1,micronucleus,"CD-1 mouse Hsd:ICR(CD-1), male, bone marrow","oral, 250 mg/kg/day, 3 days",,PCE to total erythrocyte ratio,0.504
C[C@@H]1NC(=O)[C@H](CCCCNC(=O)CO/N=C/C(=O)NCCCC[C@@H]2NC(=O)[C@@H](Cc3ccccc3)NC(=O)[C@H](CC(=O)O)NC(=O)CNC(=O)[C@H](CCCNC(=N)N)NC2=O)NC(=O)CNC(=O)[C@@H]2CCCN2C(=O)[C@H](CCCCNC(=O)CO/N=C/C(=O)NCCCC[C@@H]2NC(=O)[C@@H](Cc3ccccc3)NC(=O)[C@H](CC(=O)O)NC(=O)CNC(=O)[C@H](CCCNC(=N)N)NC2=O)NC(=O)[C@H](CCCCNC(=O)[C@H](CCCCN)NC(=O)[C@H](Cc2ccccc2)NC(=O)CNC(=O)CN2CCCNCCNCCCNCC2)NC(=O)[C@H](CCCCNC(=O)CO/N=C/C(=O)NCCCC[C@@H]2NC(=O)[C@@H](Cc3ccccc3)NC(=O)[C@H](CC(=O)O)NC(=O)CNC(=O)[C@H](CCCNC(=N)N)NC2=O)NC(=O)CNC(=O)[C@@H]2CCCN2C(=O)[C@H](CCCCNC(=O)CO/N=C/C(=O)NCCCC[C@@H]2NC(=O)[C@@H](Cc3ccccc3)NC(=O)[C@H](CC(=O)O)NC(=O)CNC(=O)[C@H](CCCNC(=N)N)NC2=O)NC1=O [copper-64 labelled],biodistribution after PET,"mouse, U-87 MG tumour xenograft, kidney","intravenous, 24 h",,tissue uptake,12 ± 1.17 %ID/g
O.O.O.O.O.O.[Cl-].[Cl-].[Co+2],,"rat male, faeces","oral, 10 mg/kg single, day 2",relative to: vehicle control subtracted,cobalt in faeces,3.91 µg/g
CCc1ccc(CC/C=C/c2ccc3c(c2)C(=O)CC3)cc1,,"Sprague-Dawley rat, male","oral, 120 mg/kg/day, 14 days",,Phosphorus,3.23 mM

# For quick reference, copied from above:
Compound,test,test system,conditions,how to read,endpoint,value
C[C@@H]1NC(=O)[C@H](CCCCNC(=O)CO/N=C/C(=O)NCCCC[C@@H]2NC(=O)[C@@H](Cc3ccccc3)NC(=O)[C@H](CC(=O)O)NC(=O)CNC(=O)[C@H](CCCNC(=N)N)NC2=O)NC(=O)CNC(=O)[C@@H]2CCCN2C(=O)[C@H](CCCCNC(=O)CO/N=C/C(=O)NCCCC[C@@H]2NC(=O)[C@@H](Cc3ccccc3)NC(=O)[C@H](CC(=O)O)NC(=O)CNC(=O)[C@H](CCCNC(=N)N)NC2=O)NC(=O)[C@H](CCCCNC(=O)[C@H](CCCCN)NC(=O)[C@H](Cc2ccccc2)NC(=O)CNC(=O)CN2CCCNCCNCCCNCC2)NC(=O)[C@H](CCCCNC(=O)CO/N=C/C(=O)NCCCC[C@@H]2NC(=O)[C@@H](Cc3ccccc3)NC(=O)[C@H](CC(=O)O)NC(=O)CNC(=O)[C@H](CCCNC(=N)N)NC2=O)NC(=O)CNC(=O)[C@@H]2CCCN2C(=O)[C@H](CCCCNC(=O)CO/N=C/C(=O)NCCCC[C@@H]2NC(=O)[C@@H](Cc3ccccc3)NC(=O)[C@H](CC(=O)O)NC(=O)CNC(=O)[C@H](CCCNC(=N)N)NC2=O)NC1=O [copper-64 labelled],biodistribution after PET,"mouse, U-87 MG tumour xenograft, kidney","intravenous, 24 h",,tissue uptake,12 ± 1.17 %ID/g
O.O.O.O.O.O.[Cl-].[Cl-].[Co+2],,"rat male, faeces","oral, 10 mg/kg single, day 2",relative to: vehicle control subtracted,cobalt in faeces,3.91 µg/g
